Experimental data collected from several papers.
Compare with care: the assays were run in different laboratories.
SCRIB PDZ3 domain: Protein scribble homolog, PDZ3 domain (SCRIB, Homo sapiens, UniProt Q14160)
Sequence of UniProt Q14160 (whole entry, looked up): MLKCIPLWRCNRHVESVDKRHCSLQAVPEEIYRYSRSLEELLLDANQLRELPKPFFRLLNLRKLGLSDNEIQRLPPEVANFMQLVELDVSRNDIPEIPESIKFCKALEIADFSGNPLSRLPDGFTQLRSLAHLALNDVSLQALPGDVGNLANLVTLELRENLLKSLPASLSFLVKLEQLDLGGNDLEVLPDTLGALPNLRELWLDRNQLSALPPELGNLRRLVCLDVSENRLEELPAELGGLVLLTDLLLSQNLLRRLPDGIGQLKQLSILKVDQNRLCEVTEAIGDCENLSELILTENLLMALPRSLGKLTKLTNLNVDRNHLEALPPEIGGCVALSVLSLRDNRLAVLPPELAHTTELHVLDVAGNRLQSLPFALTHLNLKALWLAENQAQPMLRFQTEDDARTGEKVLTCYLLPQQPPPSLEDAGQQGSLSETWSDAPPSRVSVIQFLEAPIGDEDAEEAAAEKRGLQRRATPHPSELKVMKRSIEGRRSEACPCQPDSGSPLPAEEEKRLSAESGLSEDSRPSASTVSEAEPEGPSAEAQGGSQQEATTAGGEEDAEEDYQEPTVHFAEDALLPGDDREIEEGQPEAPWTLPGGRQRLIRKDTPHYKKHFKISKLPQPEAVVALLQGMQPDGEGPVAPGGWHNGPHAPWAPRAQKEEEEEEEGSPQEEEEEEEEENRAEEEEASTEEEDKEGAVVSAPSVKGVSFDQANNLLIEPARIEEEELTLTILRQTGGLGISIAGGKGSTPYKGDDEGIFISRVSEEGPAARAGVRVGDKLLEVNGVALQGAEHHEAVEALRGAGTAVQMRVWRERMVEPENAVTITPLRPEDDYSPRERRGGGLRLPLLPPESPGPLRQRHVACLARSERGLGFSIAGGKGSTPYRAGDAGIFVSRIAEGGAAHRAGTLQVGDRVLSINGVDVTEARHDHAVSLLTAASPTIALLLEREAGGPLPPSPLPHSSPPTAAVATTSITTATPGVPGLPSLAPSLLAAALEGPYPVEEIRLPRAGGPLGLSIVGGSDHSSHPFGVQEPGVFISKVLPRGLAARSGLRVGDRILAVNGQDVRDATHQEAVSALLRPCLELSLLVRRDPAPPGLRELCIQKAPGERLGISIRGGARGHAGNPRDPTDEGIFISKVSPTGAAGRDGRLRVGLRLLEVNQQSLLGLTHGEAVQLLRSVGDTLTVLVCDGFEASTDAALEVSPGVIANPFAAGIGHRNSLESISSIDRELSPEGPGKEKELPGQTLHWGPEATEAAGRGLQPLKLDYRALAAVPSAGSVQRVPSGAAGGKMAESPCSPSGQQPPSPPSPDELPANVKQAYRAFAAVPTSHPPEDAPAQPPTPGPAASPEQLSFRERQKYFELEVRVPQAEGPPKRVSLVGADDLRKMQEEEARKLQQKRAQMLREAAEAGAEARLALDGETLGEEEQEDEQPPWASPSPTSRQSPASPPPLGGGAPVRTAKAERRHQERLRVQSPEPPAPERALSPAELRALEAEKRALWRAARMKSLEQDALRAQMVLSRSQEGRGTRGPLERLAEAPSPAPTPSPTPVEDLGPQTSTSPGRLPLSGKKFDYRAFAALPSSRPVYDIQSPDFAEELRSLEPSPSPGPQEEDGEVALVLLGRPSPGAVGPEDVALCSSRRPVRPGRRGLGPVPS
Sequence of UniProt Q8NFD2 (whole entry, looked up): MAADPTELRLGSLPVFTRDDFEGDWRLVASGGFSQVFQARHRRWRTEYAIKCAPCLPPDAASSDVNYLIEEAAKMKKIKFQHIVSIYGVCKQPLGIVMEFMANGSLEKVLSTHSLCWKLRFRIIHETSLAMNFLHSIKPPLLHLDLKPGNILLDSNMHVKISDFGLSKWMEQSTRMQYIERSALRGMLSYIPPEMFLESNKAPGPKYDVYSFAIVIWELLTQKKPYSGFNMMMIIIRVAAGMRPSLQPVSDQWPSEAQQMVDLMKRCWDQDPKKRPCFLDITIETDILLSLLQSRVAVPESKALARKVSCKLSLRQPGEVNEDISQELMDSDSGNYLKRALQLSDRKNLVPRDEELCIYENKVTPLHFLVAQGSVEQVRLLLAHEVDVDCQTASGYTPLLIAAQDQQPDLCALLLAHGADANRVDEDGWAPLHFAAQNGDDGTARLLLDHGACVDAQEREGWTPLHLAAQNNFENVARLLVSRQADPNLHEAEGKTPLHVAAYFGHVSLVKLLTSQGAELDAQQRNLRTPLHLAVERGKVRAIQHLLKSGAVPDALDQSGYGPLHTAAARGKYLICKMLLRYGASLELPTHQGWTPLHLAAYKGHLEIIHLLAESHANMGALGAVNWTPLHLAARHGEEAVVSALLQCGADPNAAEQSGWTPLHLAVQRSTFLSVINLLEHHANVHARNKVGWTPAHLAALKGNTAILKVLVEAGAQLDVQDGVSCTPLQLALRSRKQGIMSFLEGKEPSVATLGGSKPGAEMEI
Sequence of UniProt Q12851 (whole entry, looked up): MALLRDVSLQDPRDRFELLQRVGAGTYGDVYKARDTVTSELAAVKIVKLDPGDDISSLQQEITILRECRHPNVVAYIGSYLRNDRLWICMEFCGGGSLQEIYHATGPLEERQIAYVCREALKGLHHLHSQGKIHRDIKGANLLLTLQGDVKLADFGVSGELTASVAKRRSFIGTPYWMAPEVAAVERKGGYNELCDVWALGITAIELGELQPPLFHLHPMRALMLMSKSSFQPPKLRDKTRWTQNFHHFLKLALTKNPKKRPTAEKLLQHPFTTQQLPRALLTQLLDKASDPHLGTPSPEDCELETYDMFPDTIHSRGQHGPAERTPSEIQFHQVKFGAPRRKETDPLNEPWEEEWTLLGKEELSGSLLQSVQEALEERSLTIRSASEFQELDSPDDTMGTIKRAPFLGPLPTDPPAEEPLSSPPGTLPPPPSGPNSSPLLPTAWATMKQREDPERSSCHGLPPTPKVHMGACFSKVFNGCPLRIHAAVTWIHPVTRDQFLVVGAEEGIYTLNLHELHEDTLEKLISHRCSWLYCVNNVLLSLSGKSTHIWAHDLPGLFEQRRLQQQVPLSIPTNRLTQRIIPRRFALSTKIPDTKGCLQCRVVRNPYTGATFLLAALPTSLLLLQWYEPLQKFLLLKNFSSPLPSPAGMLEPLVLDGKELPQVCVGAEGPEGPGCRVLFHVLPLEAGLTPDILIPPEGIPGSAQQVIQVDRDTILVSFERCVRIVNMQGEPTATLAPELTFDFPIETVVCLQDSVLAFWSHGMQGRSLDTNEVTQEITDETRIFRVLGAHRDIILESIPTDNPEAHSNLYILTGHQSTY
Sequence of UniProt P13798 (whole entry, looked up): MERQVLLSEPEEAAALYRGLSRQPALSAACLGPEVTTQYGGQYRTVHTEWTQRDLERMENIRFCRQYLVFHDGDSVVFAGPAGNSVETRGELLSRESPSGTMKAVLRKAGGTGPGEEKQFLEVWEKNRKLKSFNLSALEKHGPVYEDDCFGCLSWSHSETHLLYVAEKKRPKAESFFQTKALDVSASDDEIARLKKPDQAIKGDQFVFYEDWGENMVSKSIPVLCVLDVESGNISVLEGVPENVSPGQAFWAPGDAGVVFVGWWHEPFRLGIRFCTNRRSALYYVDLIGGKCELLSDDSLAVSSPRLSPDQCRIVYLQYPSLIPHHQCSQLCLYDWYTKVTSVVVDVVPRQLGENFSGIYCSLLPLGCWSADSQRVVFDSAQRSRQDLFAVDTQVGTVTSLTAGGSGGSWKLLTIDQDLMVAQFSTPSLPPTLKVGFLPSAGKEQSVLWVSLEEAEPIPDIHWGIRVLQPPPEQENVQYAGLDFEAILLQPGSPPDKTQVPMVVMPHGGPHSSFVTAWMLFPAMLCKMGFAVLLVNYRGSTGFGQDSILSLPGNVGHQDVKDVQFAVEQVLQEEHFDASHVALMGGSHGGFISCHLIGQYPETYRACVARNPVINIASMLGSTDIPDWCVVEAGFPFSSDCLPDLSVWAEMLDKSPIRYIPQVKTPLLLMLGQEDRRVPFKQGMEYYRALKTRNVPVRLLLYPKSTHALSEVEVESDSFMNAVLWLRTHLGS
Sequence of UniProt P21728 (whole entry, looked up): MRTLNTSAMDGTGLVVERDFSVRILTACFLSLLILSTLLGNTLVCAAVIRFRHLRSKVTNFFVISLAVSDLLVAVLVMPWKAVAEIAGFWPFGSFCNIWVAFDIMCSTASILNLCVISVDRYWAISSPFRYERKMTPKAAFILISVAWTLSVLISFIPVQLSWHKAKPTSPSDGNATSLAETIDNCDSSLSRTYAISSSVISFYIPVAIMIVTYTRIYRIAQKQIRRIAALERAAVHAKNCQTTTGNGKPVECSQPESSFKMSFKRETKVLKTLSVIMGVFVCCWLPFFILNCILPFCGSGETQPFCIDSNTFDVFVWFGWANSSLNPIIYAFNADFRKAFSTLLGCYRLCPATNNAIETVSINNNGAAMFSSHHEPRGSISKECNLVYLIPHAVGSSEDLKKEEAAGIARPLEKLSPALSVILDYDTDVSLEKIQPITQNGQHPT
Sequence of UniProt P11473 (whole entry, looked up): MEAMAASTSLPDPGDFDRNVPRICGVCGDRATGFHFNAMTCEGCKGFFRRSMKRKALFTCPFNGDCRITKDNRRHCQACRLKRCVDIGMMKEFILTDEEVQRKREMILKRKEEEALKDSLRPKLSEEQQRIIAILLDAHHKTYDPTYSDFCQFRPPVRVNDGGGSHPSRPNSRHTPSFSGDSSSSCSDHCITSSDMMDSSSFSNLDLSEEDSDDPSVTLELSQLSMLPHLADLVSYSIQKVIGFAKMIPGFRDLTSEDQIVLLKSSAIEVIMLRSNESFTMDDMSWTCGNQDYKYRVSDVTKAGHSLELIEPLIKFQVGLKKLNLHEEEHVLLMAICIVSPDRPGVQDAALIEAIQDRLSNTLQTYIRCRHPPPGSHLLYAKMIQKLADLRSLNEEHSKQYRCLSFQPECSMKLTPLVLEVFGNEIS

For COc1ccc(N2C(=O)N(c3c(C)cccc3Cl)Cc3cnc(Nc4ccc(C5CCN(C)CC5)cc4OC)nc32)nc1, the inhibition was 11% (MAP4K2 (Homo sapiens, UniProt Q12851); kinase activity; 0.5 µM).
O=C(Nc1cccnn1)N1CCC(=Cc2cccc(Oc3ccc(C(F)(F)F)cn3)c2)CC1 gave an inhibition of 24% (PTGER3 (Homo sapiens, UniProt P43115); radioligand binding, inhibitor; 10 µM, human, together with: [3H]prostaglandin E2).
CN1CCN(c2cc(-c3ccncc3)c(-c3ccc4ccccc4c3)nn2)CC1 gave an activation of 0.8% (DRD1 (Homo sapiens, UniProt P21728); agonist, FLIPR; 12.5 µM).
O=C(Nc1cnccc1Cl)N1CCN(Cc2ccc3c(c2)OC(F)(F)O3)CC1 has an inhibition of 19% (Vitamin D3 receptor (VDR, Homo sapiens, UniProt P11473); radioligand binding, inhibitor; 50 µM, human, together with: [3H]1alpha,25-dihydroxyvitamin D3).
With CC[C@H](C)[C@H](NC(=O)[C@H](CCCNC(=N)N)NC(=O)[C@@H](NC(=O)[C@H](CCCNC(=N)N)NC(=O)[C@H](CO)NC(=O)[C@H](C)NC(=O)[C@@H](N)CC(N)=O)[C@@H](C)O)C(=O)N[C@H](C(=O)N[C@@H](Cc1ccccc1)C(=O)N[C@H](C(=O)O)C(C)C)[C@@H](C)O the Kd was 24.1 µM (SCRIB PDZ3 domain; binding, fluorescence polarization; solution; Scribble PDZ3 domain).
Under “log2 fold change”, Oc1ccc2c3c1O[C@H]1[C@@H](O)CC[C@@]4(O)[C@@H](C2)N(CC2CCC2)CC[C@]314 is recorded as -0.22 (Probable G-protein coupled receptor 149 (GPR149, Homo sapiens, UniProt Q86SP6); β-arrestin recruitment, TANGO luminescence, measured: GPR149; concentration not given; baseline: basal luminescence).
The IC50 of COc1cc(Nc2ncc(F)c(Nc3ccc4c(n3)NC(=O)C(C)(C)O4)n2)cc(OC)c1OC is reported as > 10 µM (PLAU (Homo sapiens, UniProt P00749); Urokinase).
For C[C@H]1CN(c2n[nH]c3nc(N[C@H]4CC[C@H](NS(=O)(=O)CCC(F)(F)F)CC4)ncc23)CCO1, the remaining binding was 1 (Stalled ribosome sensor GCN1 (Homo sapiens, UniProt Q92616); Kinobeads competition, measured: GCN1L1; 0.16 µM, unit not given; baseline: vehicle).
CC(C)C[C@H](NC(=O)[C@H](CS)NC(=O)[C@H](Cc1c[nH]cn1)NC(=O)[C@H](CC(C)C)NC(=O)[C@H](C)NC(=O)[C@H](CCC(=O)O)NC(=O)[C@H](CC(C)C)NC(=O)[C@H](CCC(=O)O)NC(=O)[C@@H]1CCCN1C(=O)[C@@H](N)CC(=O)O)C(=O)O has a Kd of 38.8 µM (SCRIB PDZ3 domain; binding, fluorescence polarization; solution; Scribble PDZ3 domain).
For O=C(c1ccc(Cl)cc1)N1CCN2C(=O)N(OC(=O)N3CCOc4ccccc43)C(=O)C2C1 (stereo not drawn), “mean protein ratio” read 1.13 (APEH (Homo sapiens, UniProt P13798); MS-based ABPP; SW-620 conditioned medium; 10 µM, 1 h, 37 °C; baseline: treated over control).
COc1cc2c(Oc3ccc4[nH]c(C)cc4c3F)ccnc2cc1OCC1(N)CC1 — result for “grade 1 or 2 Thrombocytopenia”: 26.7% (paediatric recurrent refractory sarcoma; 8 mg/kg).
For [2H]c1c([2H])c([C@]2([2H])CCCN2C(=O)C(C)(C)Oc2ccc3cn[nH]c3c2)c([2H])c([2H])c1C([2H])([2H])[2H], the remaining binding was 96% (ANKK1 (Homo sapiens, UniProt Q8NFD2); KINOMEscan; 1 µM; baseline: DMSO control).
